Measured values collected from several papers.
Each line is one published result; not all experiments were run side by side. ± gives the spread as reported.
Organism: Plasmodium falciparum

COC(=O)[C@@H]1Cc2c([nH]c3ccccc23)[C@H](c2cccnc2)N1  IC50 (parasite growth; 48 h, drug-resistant strain, blood stage): 5.22 µg/mL
CN(C)c1ncnc2c1c(-c1ccc(Oc3ccccc3)cc1)cn2C1CCCC1  IC50 (merozoite invasion of erythrocytes; FVO): 6000 nM
CC1=CC(=CNC2CCCCCCC2)N=C1c1ccc[nH]1  IC50 (parasite growth; Dd2, chloroquine-resistant): > 250 nM
CC(C)(C)c1cc(CN(Cc2ccccn2)Cc2ccccn2)c(O)c(CN(Cc2ccccn2)Cc2ccccn2)c1  IC50 (growth, [3H]hypoxanthine incorporation; W2 chloroquine-resistant; 48 h): 221 ± 75 nM
CC[C@H](C)[C@@H]1NC(=O)[C@H](CCCCN)NC(=O)[C@H](CCCCN)NC(=O)[C@H](Cc2ccc(O)cc2)NC(=O)[C@H](CC(C)C)NC(=O)[C@@H]2CCCN2C(=O)[C@H](C)NC(=O)CNC(=O)CNC(=O)[C@H](CO)NC(=O)CNC(=O)CNC(=O)[C@H](CO)NC(=O)[C@H](CCC(=O)O)NC(=O)[C@H](CC(C)C)NC(=O)[C@H](CC(C)C)NC(=O)[C@H](CCCCN)NC(=O)[C@H](CCCCN)NC(=O)[C@H]([C@@H](C)CC)NC(=O)[C@H]([C@@H](C)CC)NC(=O)[C@H](CCCCN)NC(=O)[C@H](CCCCN)NC(=O)[C@H](Cc2ccc(O)cc2)NC(=O)[C@H](CC(C)C)NC(=O)[C@@H]2CCCN2C(=O)CNC(=O)CNC(=O)[C@@H](NC(=O)CN)CSSC[C@@H](C(=O)O)NC(=O)[C@H](CC(C)C)NC(=O)[C@H](CCCCN)NC(=O)[C@H](CCCCN)NC(=O)[C@H]([C@@H](C)CC)NC1=O  IC50 (parasite growth; 3D7; 72 h, Albumax II medium, no serum): 19300 ± 1100 nM
COc1ccc2cc1Oc1cc3c(cc1OC)CCN(C)C3Cc1ccc(cc1)Oc1c(O)c(OC)cc3c1C(C2)N(C)CC3 (stereo not shown)  IC50 (parasite growth, SYBR Green; blood stage): 470 nM
CC1(c2ccc(F)cc2F)OOC2(CCN(C(=O)c3ccccc3)CC2)OO1  IC50 (parasite growth, imaging; 3D7; 48 h, blood stage): 10.5 nM
CCCCNCC(O)Cn1c2ccc(Br)cc2c2cc(Br)ccc21 (stereo not shown)  IC50 (SYBR Green I; Dd2 chloroquine-resistant; 72 h): 59 ± 12 nM
CC[C@H](C)[C@@H]1NC(=O)[C@H](CCCCN)NC(=O)[C@H](CCCCN)NC(=O)[C@H](Cc2ccc(O)cc2)NC(=O)[C@H](CC(C)C)NC(=O)[C@@H]2CCCN2C(=O)[C@H](C)NC(=O)CNC(=O)CNC(=O)[C@H](CO)NC(=O)CNC(=O)CNC(=O)[C@H](CO)NC(=O)[C@H](CCC(=O)O)NC(=O)[C@H](CC(C)C)NC(=O)[C@H](CC(C)C)NC(=O)[C@H](CCCCN)NC(=O)[C@H](CCCCN)NC(=O)[C@H]([C@@H](C)CC)NC(=O)[C@H]([C@@H](C)CC)NC(=O)[C@H](CCCCN)NC(=O)[C@H](CCCCN)NC(=O)[C@H](Cc2ccc(O)cc2)NC(=O)[C@H](CC(C)C)NC(=O)[C@@H]2CCCN2C(=O)[C@H](C)NC(=O)CNC(=O)[C@@H]2CSSC[C@H](NC(=O)[C@H](CC(C)C)NC(=O)[C@H](CCCCN)NC(=O)[C@H](CCCCN)NC(=O)[C@H]([C@@H](C)CC)NC1=O)C(=O)N[C@@H](CCC(=O)O)C(=O)N[C@@H](CC(N)=O)C(=O)NCC(=O)N2  IC50 (parasite growth; 3D7; 72 h, Albumax II medium, no serum): ~46000 nM
OCCCCCCCCOCCCc1cccnc1  IC50 (anti-HRPII ELISA; W2 chloroquine-resistant; 72 h): > 188000 nM
CC(C)(CO)NCC1=C(O)C(=O)c2ccccc2C1=O  IC50 (parasite growth; W2; drug-resistant strain, blood stage): 59900 nM
COC1=CC(c2ccc[nH]2)=NC12O[C@@H](C)C[C@@H]1CCCCC(=O)CCc3ccc([nH]3)[C@H]12 (stereo partly shown)  IC50 (parasite growth; DD2; drug-resistant strain, blood stage): 127 nM
C1=CC(c2ccc[nH]2)=NC1=CNC1CCCCCCC1  IC50 (parasite growth; 7G8, chloroquine-resistant): > 2500 nM
O=C(C1CCN(c2nnnn2-c2ccccc2)CC1)N1CCCc2ccccc21  IC50 ([3H]hypoxanthine incorporation; 7G8): 470 nM
COc1cc2c3cc1Oc1cc(ccc1O)CC1c4c(cc(OC)c(O)c4Oc4ccc(cc4)CC3N(C)CC2)CCN1C (stereo not shown)  IC50 (parasite growth, SYBR green I; Cam3.1 R539T (MRA1240)): 3010 ± 269 nM
CC[C@H](C)[C@@H]1NC(=O)[C@H](CCCCN)NC(=O)[C@H](CCCCN)NC(=O)[C@H](Cc2ccc(O)cc2)NC(=O)[C@H](CC(C)C)NC(=O)[C@@H]2CCCN2C(=O)[C@H](C)NC(=O)CNC(=O)CNC(=O)[C@H](CO)NC(=O)CNC(=O)CNC(=O)[C@H](CO)NC(=O)[C@H](CCC(=O)O)NC(=O)[C@H](CC(C)C)NC(=O)[C@H](CC(C)C)NC(=O)[C@H](CCCNC(=N)N)NC(=O)[C@H](CCCCN)NC(=O)[C@H]([C@@H](C)CC)NC(=O)[C@H]([C@@H](C)CC)NC(=O)[C@H](CCCCN)NC(=O)[C@H](CCCCN)NC(=O)[C@H](Cc2ccc(O)cc2)NC(=O)[C@H](CC(C)C)NC(=O)[C@@H]2CCCN2C(=O)CNC(=O)CNC(=O)[C@@H](NC(=O)CN)CSSC[C@@H](C(N)=O)NC(=O)[C@H](CC(C)C)NC(=O)[C@H](CCCNC(=N)N)NC(=O)[C@H](CCCCN)NC(=O)[C@H]([C@@H](C)CC)NC1=O  IC50 (parasite growth; 3D7; 72 h, 5% serum plus Albumax II): 10400 ± 700 nM
CCCCc1cc(CN(Cc2ccccn2)Cc2ccccn2)c(O)c(CN(Cc2ccccn2)Cc2ccccn2)c1  IC50 (growth, [3H]hypoxanthine incorporation; HB3 chloroquine-sensitive; 48 h): 135 ± 10 nM
CC[C@H](C)[C@@H]1NC(=O)[C@H](CCCCN)NC(=O)[C@H](CCCCN)NC(=O)[C@H](Cc2ccc(O)cc2)NC(=O)[C@H](CC(C)C)NC(=O)[C@@H]2CCCN2C(=O)[C@H](C)NC(=O)CNC(=O)CNC(=O)[C@H](CO)NC(=O)CNC(=O)CNC(=O)[C@H](CC(N)=O)NC(=O)[C@H](CCC(=O)O)NC(=O)[C@H](CC(C)C)NC(=O)[C@H](CC(C)C)NC(=O)[C@H](CCCCN)NC(=O)[C@H](CCCCN)NC(=O)[C@H]([C@@H](C)CC)NC(=O)[C@H]([C@@H](C)CC)NC(=O)[C@H](CCCCN)NC(=O)[C@H](CCCCN)NC(=O)[C@H](Cc2ccc(O)cc2)NC(=O)[C@H](CC(C)C)NC(=O)[C@@H]2CCCN2C(=O)[C@H](C)NC(=O)CNC(=O)CNC(=O)[C@H](CO)NC(=O)CNC(=O)CNC(=O)[C@H](CC(N)=O)NC(=O)[C@H](CCC(=O)O)NC(=O)[C@H](CC(C)C)NC(=O)[C@H](CC(C)C)NC(=O)[C@H](CCCCN)NC(=O)[C@H](CCCCN)NC(=O)[C@H]([C@@H](C)CC)NC1=O  IC50 (parasite growth; 3D7; 72 h, 5% serum plus Albumax II): 8700 ± 700 nM
CCCCCCCCCCCCCCCCC1CC(=O)NCCCN(C)CCCCN(C)CCCN1C (stereo not shown)  IC50 (parasite LDH; W2 chloroquine-resistant; 72 h): 0.18 µg/mL
CCC1=CC(=CNC2CCCCCC2)N=C1c1ccc[nH]1  IC50 (parasite growth; Dd2, chloroquine-resistant): 523 nM
O=C(O)[C@@H]1Cc2c([nH]c3ccccc23)[C@@H](c2ccc(Br)cc2Br)N1  IC50 (parasite growth; Dd2; 72 h): 590 ± 20 nM
O=C(CCc1ccc[nH]1)NCC(=O)NC12CC3CC(CC(C3)C1)C2  IC50 (parasite growth; 7G8, chloroquine-resistant): > 2500 nM
CC[C@H](C)[C@@H]1NC(=O)[C@H](CCCNC(=N)N)NC(=O)[C@H](CCCCN)NC(=O)[C@H](Cc2ccc(O)cc2)NC(=O)[C@H](CC(C)C)NC(=O)[C@@H]2CCCN2C(=O)[C@H](C)NC(=O)CNC(=O)CNC(=O)[C@H](CO)NC(=O)CNC(=O)CNC(=O)[C@H](CO)NC(=O)[C@H](CCC(=O)O)NC(=O)[C@H](CC(C)C)NC(=O)[C@H](CC(C)C)NC(=O)[C@H](CCCCN)NC(=O)[C@H](CCCCN)NC(=O)[C@H]([C@@H](C)CC)NC(=O)[C@H]([C@@H](C)CC)NC(=O)[C@H](CCCNC(=N)N)NC(=O)[C@H](CCCCN)NC(=O)[C@H](Cc2ccc(O)cc2)NC(=O)[C@H](CC(C)C)NC(=O)[C@@H]2CCCN2C(=O)CNC(=O)CNC(=O)[C@@H](NC(=O)CN)CSSC[C@@H](C(N)=O)NC(=O)[C@H](CC(C)C)NC(=O)[C@H](CCCCN)NC(=O)[C@H](CCCCN)NC(=O)[C@H]([C@@H](C)CC)NC1=O  IC50 (parasite growth; 3D7; 72 h, 5% serum plus Albumax II): 12300 ± 1000 nM
CC(C)C1=CC(=CNC23CC4CC(CC(C4)C2)C3)N=C1c1ccc[nH]1  IC50 (parasite growth; 7G8, chloroquine-resistant): 31 nM
C[C@@H](C[C@@H](O)[C@H](O)C(C)(C)O)[C@@H]1CC[C@]2(C)C3=CC[C@H]4C(C)(C)[C@@H](O)CC[C@]4(C)[C@H]3CC[C@@]12C  IC50 ([3H]hypoxanthine incorporation; W2, chloroquine-resistant): 37200 ± 3200 nM
CC1=CC(c2ccc[nH]2)=NC1=CNC1CCCCCCC1  IC50 (parasite growth; Dd2, chloroquine-resistant): > 250 nM
CC[C@H](C)[C@@H]1NC(=O)[C@H](CCCCN)NC(=O)[C@H](CCCCN)NC(=O)[C@H](Cc2ccc(O)cc2)NC(=O)[C@H](CC(C)C)NC(=O)[C@@H]2CCCN2C(=O)[C@H](C)NC(=O)CNC(=O)CNC(=O)[C@H](CO)NC(=O)CNC(=O)CNC(=O)[C@H](CO)NC(=O)[C@H](CCC(=O)O)NC(=O)[C@H](CC(C)C)NC(=O)[C@H](CC(C)C)NC(=O)[C@H](CCCCN)NC(=O)[C@H](CCCCN)NC(=O)[C@H](C(C)C)NC(=O)[C@H]([C@@H](C)CC)NC(=O)[C@H](CCCCN)NC(=O)[C@H](CCCCN)NC(=O)[C@H](Cc2ccc(O)cc2)NC(=O)[C@H](CC(C)C)NC(=O)[C@@H]2CCCN2C(=O)CNC(=O)CNC(=O)[C@@H](NC(=O)CN)CSSC[C@@H](C(N)=O)NC(=O)[C@H](CC(C)C)NC(=O)[C@H](CCCCN)NC(=O)[C@H](CCCCN)NC(=O)[C@H](C(C)C)NC1=O  IC50 (parasite growth; 3D7; 72 h, Albumax II medium, no serum): 12700 ± 700 nM
Clc1ccc(C2=CC(c3ccc[nH]3)=NC2=CNC2CCCC2)cc1  IC50 (parasite growth; 7G8, chloroquine-resistant): 510 nM
CC(C)C(C(=O)N[C@@H](Cc1ccccc1)[C@H](O)CN1CCN(Cc2ccc(Br)cc2)CC1)N1C(=O)c2ccccc2C1=O (stereo partly shown)  IC50 (blood-stage growth, SYBR Green I fluorescence; IPC4912 (MRA-1241) artemisinin-resistant; 72 h): 1100 ± 17.6 nM
C1=CC(c2ccc[nH]2)=NC1=CNC1CCCCCC1  IC50 (parasite growth; 7G8, chloroquine-resistant): > 2500 nM
COc1cc(O)c(-c2cc(-c3cc(-c4c(O)cc(OC)c5c4C[C@@H](C)N[C@@H]5C)c4cc(C)cc(OC)c4c3O)c(O)c3c(OC)cc(C)cc23)c2c1[C@@H](C)N[C@H](C)C2  IC50 (parasite growth, SYBR Green; W2; 96 h, drug-resistant strain, blood stage): 184 nM

For quick reference, copied from above:
C1=CC(c2ccc[nH]2)=NC1=CNC1CCCCCC1  IC50 (parasite growth; 7G8, chloroquine-resistant): > 2500 nM
COc1cc(O)c(-c2cc(-c3cc(-c4c(O)cc(OC)c5c4C[C@@H](C)N[C@@H]5C)c4cc(C)cc(OC)c4c3O)c(O)c3c(OC)cc(C)cc23)c2c1[C@@H](C)N[C@H](C)C2  IC50 (parasite growth, SYBR Green; W2; 96 h, drug-resistant strain, blood stage): 184 nM
